Measured values of several laboratories.
Each numbered part is a random draw from the data of one study; scales do not carry over between parts.

Block 1
Target: Phosphate system positive regulatory protein PHO4, full length, GST-tagged (PHO4, Saccharomyces cerevisiae, UniProt P07270, residues 1-312)
Technique: competition protein-binding microarray
Form: double-stranded DNA, one strand shown
Medium: in vitro
Tested at: 2 µM
Setting: whole 60-bp probe, lowest competitor level
Together with: Cbf1 competitor, 0.05 µM
Reading: higher = stronger binding
Endpoint: fluorescence intensity
Constant ends, left off below: … GTCTTGATTCGCTTGACGCTGCTG
Target sequence (chain): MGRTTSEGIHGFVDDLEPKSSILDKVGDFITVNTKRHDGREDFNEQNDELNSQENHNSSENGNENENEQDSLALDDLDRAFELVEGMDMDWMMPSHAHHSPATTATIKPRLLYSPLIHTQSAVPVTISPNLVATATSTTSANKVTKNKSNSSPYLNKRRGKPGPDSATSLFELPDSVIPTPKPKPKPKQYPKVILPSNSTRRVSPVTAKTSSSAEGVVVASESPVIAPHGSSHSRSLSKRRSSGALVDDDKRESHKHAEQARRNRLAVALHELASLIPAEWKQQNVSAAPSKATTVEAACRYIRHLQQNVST
GGCAAATACTGCCGACACGTTGCCAAATCGCTGACC: 12200 a.u.
CACATTATCAAACGTCACCTGCGTATTATCAACCGG: 5780 a.u.
GTCGTCGTCGTACTCATCTAATAGTTCAATGTCTAA: 3000 a.u.
AGGGTTACCATTAAAAAGCGTCCCAGAAAAGGTGGA: 2590 a.u.
ACCAACCCAGGTACCGATGTGACGGTTTCCTCAGTC: 4220 a.u.
AAGTTCACTTGATGTGGCGTGATGGTCCTTTACCCG: 5010 a.u.
AAGTTAATCGTCGAGACCGTGACGGATCTTAAGCGC: 5610 a.u.
AAACCACAGTACTGTCACACTCTACTACCATCCAGT: 5070 a.u.
CGGGGTTAAGTTTGTTTGGTGGGTGGCTTGCAGCAG: 5530 a.u.
AAGGTAGCCAAGAATACCGTGATGGTTGCTTAGTAT: 4750 a.u.
ATTCAAGCCGGTGAACATGTGGAGGTTAACGGTTCC: 9300 a.u.
CTTCTGTAAATTTGCACTGTGGGTGGACGCGCCCCG: 5300 a.u.
AAACGTAGTTACGGCCACGTGGGTAAGATATGAAAG: 21100 a.u.
AGAAAGCACATTTGTCACGTCTCAGGTATGTAGTTC: 6630 a.u.
TTTTCCGGCAAGAGTCGCGTGATGGTTTTTTCTAAT: 6770 a.u.
CTAACGAAGGTTTTTCACGTGAGGTACAAGCCAAGT: 9550 a.u.
CATACCCAACCTTTTCACGTGTTCTAAGATATTTGT: 13900 a.u.
GTCTTGTCTCATTGTCACTAGACTTTCCCCACTTCA: 3630 a.u.
CAGCAAGTGTCCCAGCATGTGATGCTCACCAATCAG: 8310 a.u.

Block 2
Target: Histone acetyltransferase KAT6A, winged helix 1, GST fusion (KAT6A, Homo sapiens, UniProt Q92794, residues 1-85)
Technique: protein binding microarray
Form: double-stranded DNA, one strand shown
Medium: in vitro
Tested at: not given
Setting: 8-mer, flanks averaged, mean of 2 arrays, mostly near background
Baseline: not given
Reading: higher = stronger binding
Endpoint: E-score
Target sequence (chain): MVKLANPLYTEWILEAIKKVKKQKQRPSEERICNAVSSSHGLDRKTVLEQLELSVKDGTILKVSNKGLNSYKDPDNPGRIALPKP
GAAGCAAC: -0.2
AGGCCATG: -0.169
CCGATCGC: 0.225
ACACCGAA: -0.0576
ATAACGAT: -0.142
CTAAGTAG: -0.255
ACCTGCAC: -0.112
ACTGGGTC: -0.217
AGAGCCAA: -0.192
ACTAGAGG: -0.125
CTGGATAA: -0.128
GACTAAAA: -0.0477
ATGATAGG: -0.158
GCACGGCC: 0.387
CCATGGAA: -0.275
CGTCAATA: 0.136
GCCACATA: 0.0236
AGTATCTA: -0.15
AGGGCATA: -0.186

Block 3
Target: Sal-like protein 4, full length isoform A (SALL4, Homo sapiens, UniProt Q9UJQ4, residues 1-1053)
UniProt Q9UJQ4, sequence (whole entry, looked up): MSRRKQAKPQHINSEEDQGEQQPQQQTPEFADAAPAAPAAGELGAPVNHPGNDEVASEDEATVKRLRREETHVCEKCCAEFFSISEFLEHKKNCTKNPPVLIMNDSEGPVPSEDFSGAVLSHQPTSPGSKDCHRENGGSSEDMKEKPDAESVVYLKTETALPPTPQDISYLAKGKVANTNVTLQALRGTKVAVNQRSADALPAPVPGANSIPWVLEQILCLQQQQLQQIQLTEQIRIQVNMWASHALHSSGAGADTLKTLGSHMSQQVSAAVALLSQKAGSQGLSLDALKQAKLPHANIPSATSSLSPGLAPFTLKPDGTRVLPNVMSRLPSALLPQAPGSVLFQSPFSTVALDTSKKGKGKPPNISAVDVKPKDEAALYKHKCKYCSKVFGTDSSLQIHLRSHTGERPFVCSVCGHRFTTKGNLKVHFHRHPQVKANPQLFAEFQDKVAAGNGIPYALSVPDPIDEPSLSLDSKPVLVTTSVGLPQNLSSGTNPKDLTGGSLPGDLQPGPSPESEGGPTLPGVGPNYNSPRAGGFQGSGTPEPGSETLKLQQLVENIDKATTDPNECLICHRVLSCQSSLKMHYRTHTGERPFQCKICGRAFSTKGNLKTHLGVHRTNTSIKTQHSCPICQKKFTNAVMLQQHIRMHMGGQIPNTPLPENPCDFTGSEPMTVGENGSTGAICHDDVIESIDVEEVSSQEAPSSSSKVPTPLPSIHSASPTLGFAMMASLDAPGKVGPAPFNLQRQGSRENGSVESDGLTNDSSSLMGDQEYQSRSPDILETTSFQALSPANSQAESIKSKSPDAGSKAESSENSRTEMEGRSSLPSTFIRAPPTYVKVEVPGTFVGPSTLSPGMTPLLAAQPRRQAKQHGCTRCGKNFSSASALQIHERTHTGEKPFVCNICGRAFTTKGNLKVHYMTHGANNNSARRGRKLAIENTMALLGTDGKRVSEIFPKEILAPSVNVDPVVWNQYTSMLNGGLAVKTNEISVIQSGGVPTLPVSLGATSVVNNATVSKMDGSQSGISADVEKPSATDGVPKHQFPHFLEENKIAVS
Technique: universal PBM
Form: double-stranded DNA, one strand shown
Medium: in vitro
Tested at: 600 nM
Setting: 8-mer, flanks averaged, mean of replicates
Reading: higher = stronger binding
Endpoint: E-score
ACGCGAGC: -0.184
GAAGGATC: -0.0799
CAACATCG: 0.0919
CAAGATTG: 0.128
ATTCCAAG: 0.163
CGCTTCAC: -0.129
CGATAGAA: 0.0768
AGGTACAA: 0.0603
GTCCAAGA: -0.194
GAGATAAA: 0.214
GCCACTGA: -0.102
AGCTTTTG: 0.0995
CATAGAGA: 0.148
CACCGCAC: -0.236
GAAGGTAC: -0.00193
CAGCACGA: -0.182
AGTGACCG: -0.261
AGCGTAAA: 0.0909
ATTGGACA: 0.125
CCGGTACA: -0.101
ATGTATCC: 0.153
CACCATAC: -0.0515
AAATGCGC: -0.0297
AGTTTTCC: 0.0341
GGGGTTCA: -0.237

Block 4
Target: Interferon regulatory factor 7, full length, phosphomimetic (IRF7, Homo sapiens, UniProt Q92985, residues 1-503, S471D/S472D/S475D/S476D/S477D/S483D/S484D/S487D)
UniProt Q92985, sequence (whole entry, unmodified, looked up): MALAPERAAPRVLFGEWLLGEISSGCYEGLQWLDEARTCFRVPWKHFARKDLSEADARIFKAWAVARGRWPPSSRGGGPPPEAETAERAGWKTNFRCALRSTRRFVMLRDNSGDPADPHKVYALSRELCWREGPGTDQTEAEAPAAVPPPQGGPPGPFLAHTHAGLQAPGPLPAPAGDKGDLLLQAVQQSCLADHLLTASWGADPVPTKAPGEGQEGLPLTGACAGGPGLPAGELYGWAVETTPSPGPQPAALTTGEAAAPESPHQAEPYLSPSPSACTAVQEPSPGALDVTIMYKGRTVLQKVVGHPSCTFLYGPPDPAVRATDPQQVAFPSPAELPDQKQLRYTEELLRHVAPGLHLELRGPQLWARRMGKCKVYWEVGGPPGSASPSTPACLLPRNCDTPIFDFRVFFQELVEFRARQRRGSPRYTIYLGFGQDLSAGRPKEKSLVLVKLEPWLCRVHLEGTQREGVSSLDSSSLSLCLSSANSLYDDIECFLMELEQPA
Technique: protein-binding microarray
Form: double-stranded DNA, one strand shown
Medium: in vitro
Tested at: 2200 nM top
Setting: 60-bp whole probe
Together with: salmon DNA 0.4 mg/ml
Baseline: random background probes
Reading: higher = stronger binding
Endpoint: fitted relative affinity
Constant ends, left off below: GCCTAGCAC … GTCTTGATTCGCTTGACGCTGCTG
GACGGTTTTCTTCTCCTGACGTGCTAG: 2.01 z-score
TTAGGACTGATTCTCCTTTAGTGCTAG: 0.337 z-score
TTAGGTTTCGTGACTGGGTTAGTGCTA: 1.95 z-score
GACGGACTGGGTATCCGGACGTGCTAG: -0.828 z-score
TCACTTCTGTATTCATGACTGTGCTAG: 2.17 z-score
GACGGTAACCTACTGCTGACGTGCTAG: 0.227 z-score
TTAGGTTCCCTTTTCGTTTAGTGCTAG: 4.48 z-score
TCACTTCTCCTCTAGGTTACTGTGCTA: 2.4 z-score
TCTTGTCTGGATGTGCCTTAGTGCTAG: 0.932 z-score
GACGGCATCCTTATCCTGACGTGCTAG: 0.453 z-score
TTAGGTATCGGGACTGGGTTTGTGCTA: -0.224 z-score
GACGGTATCCTTTTCCTAACGTGCTAG: 1.38 z-score
GACGAAGTGAGTCTCGAGACGTGCTAG: 0.0643 z-score
TCAATTGTGGGTCTTGCACTGTGCTAG: 0.34 z-score
CCGCTTTTTTTTTTTTTTTTGTGCTAG: 2.05 z-score
TTGGGTCTCGGTATCGGTTAGTGCTAG: 0.899 z-score
TTAGATTTCGCGACTGGATTAGTGCTA: 0.395 z-score
TTAGGTATGGGACTGGGTTAGTGCTAG: -0.213 z-score
TCATCTCTACTTGTGTCACTGTGCTAG: 1.59 z-score

Excerpt of the above (block 2):
ATAACGAT: -0.142
CTAAGTAG: -0.255
ACCTGCAC: -0.112
ACTGGGTC: -0.217
AGAGCCAA: -0.192
ACTAGAGG: -0.125
CTGGATAA: -0.128
GACTAAAA: -0.0477
ATGATAGG: -0.158
